Experimental data of several laboratories.
A part holds a random share of what one study measured.

Sample 1
Target: RNA binding protein fox-1 homolog 2, RRM domain, GST-SBP tag (RBFOX2, Homo sapiens, UniProt O43251-10, residues 100-194)
Method: RNA Bind-n-Seq
Molecule type: RNA
Sample: in vitro
Tested at: 365 nM
Setting: natural RNA segment, single round, ends assumed
Reference: no-protein control
Reading: higher = stronger binding
All sequences stand within: GGGAGUUCUACAGUCCGACGAUC … UGGAAUUCUCGGGUGCCAA
Target sequence (chain): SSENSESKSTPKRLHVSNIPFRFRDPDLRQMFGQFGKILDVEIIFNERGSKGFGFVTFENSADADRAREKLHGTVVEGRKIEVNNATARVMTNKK
Sequence	RBNS enrichment (R)
UAGUUUUAUUGAUUACACUGAUUUAUUCUACCCUAUUUUAUAAUGCAGGACUUUUGUAAUGUUGUCUAAAUGAGGAAACAUUUCUGUCAAAUUAGCCUAGUGAAAUCUCU	0.323
UAUUUUAGGUGCUGGAGUAUGUUUGAAGAGUGUGCUGGGAAAAAGGAAGCAUUUCUUCAUUGAUUUAAAUCAGUAUGAAUAUUAUAUGCCUAAAUAAAAAAUUUGCACAG	0.668
GCCUCUCCUUGCCCUCUACACCCCGAGCCUCUCAGCCUGCCCUUCUUUCUCCUGCCUGACCCCUGGGUCUCCCUCAGAUUCCCUCCUCUCAGACAGCGCCAGGCCGGGGU	0.569
GGCGGGGCGAUCGGGUCUCAGCCCCUGCCUUCCCCAGUCUCUGGGUCACCCGAAUUUUCCCACCCCUGCUUCUCCCCGAGGAGGUUGAGCUCUUGAGCAAGUUGGGACUU	0.4
CUUAACCAUGUGCAAUUUGUCCUUUAUAAGCUUUGAGUAUCUUACAGCUUGCCUUUUUAAUGUUAGUCACAAUGUUUUUGUGGUUUGAAGUUUAGUUUAAUGUUAGUGCA	3.07
UUUAUUUUAAAGAGAAAGUGAUUCAGUGGGGAAAUUUAUAAAGCUAUAAAUAUUAUAUAUUUUAUUUUUCAUACAUGUUUGAAUUGCGGAUCCAUGGAUGUUCCAUCUGU	0.896
AUCUGAUCAGUUACUUUAAAAAAUGACUUCUUAUUUUUUAAAUGUUUCCACAUUUUUUGCUUGUGGAAAGACUGUUUUCAUAUGUUCUACUUGGAUAAAGAAUUUAAAUG	0.391
UAUGGCUGGUCCUCCUUCUUGCUCACUGACCCCUCUCCAGGACACUGUCCCUGAAGCCUUCGCAUCUCAGCUCUUCACCCCUGGGAGGCAGCUGAUCGCCCUGCGUGCUG	1

Sample 2
Target: Histone acetyltransferase KAT6A, winged helix 2, GST fusion (KAT6A, Homo sapiens, UniProt Q92794, residues 85-181)
Method: protein binding microarray
Molecule type: double-stranded DNA, one strand shown
Sample: in vitro
Tested at: not given
Setting: 8-mer, flanks averaged, mean of 2 arrays, mostly near background
Reference: not given
Reading: higher = stronger binding
Construct (chain): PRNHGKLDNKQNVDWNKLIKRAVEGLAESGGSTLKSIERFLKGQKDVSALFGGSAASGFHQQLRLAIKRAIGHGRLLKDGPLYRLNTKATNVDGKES
Sequence	E-score
AGAAGTTG	-0.181
CCGGATGC	0.169
ATTACTTC	-0.167
ACACCAAC	-0.182
CGCTGAGA	-0.0806

Sample 3
Target: Interferon regulatory factor 7, full length, phosphomimetic (IRF7, Homo sapiens, UniProt Q92985, residues 1-503, S471D/S472D/S475D/S476D/S477D/S483D/S484D/S487D)
Method: protein-binding microarray
Molecule type: double-stranded DNA, one strand shown
Sample: in vitro
Tested at: 2200 nM top
Setting: 60-bp whole probe
Together with: salmon DNA 0.4 mg/ml
Reference: random background probes
Reading: higher = stronger binding
All sequences stand within: GCCTAGCAC … GTCTTGATTCGCTTGACGCTGCTG
Construct (chain): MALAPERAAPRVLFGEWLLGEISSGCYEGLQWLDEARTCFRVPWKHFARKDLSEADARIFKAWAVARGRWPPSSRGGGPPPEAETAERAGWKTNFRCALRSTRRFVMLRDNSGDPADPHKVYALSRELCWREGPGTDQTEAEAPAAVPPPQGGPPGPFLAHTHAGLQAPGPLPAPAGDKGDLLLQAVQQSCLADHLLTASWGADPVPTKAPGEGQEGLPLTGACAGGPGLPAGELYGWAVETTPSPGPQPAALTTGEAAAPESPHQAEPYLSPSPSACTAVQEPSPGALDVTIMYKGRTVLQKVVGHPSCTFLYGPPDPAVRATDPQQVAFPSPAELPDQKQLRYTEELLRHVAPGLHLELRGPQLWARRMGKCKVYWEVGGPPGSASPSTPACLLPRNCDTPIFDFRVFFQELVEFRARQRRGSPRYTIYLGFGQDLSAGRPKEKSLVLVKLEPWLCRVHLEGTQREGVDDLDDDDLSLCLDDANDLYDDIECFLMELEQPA
Sequence	fitted relative affinity
GACGATCTCAGTTTCGGGACGTGCTAG	4.32 z-score
GACGGTATCCTGCTGCTGACGTGCTAG	0.618 z-score
GACGGACTGGGCTATCGGGACGTGCTA	-1.17 z-score
GACGGACTGATTCTCCTGACGTGCTAG	0.212 z-score
GACGGACTGGACACTGGGGAGGTGCTA	-0.819 z-score
CTTGGCTTCTCCCACAGGTGGTGCTAG	-0.226 z-score
TCAGATATTAAACTGATACTGTGCTAG	-0.245 z-score
ATTGTTTTCAGTTTCACTGCGTGCTAG	6.32 z-score
ACTAGTGTTTTTCTCCTATTGTGCTAG	1.61 z-score

Single results of other studies
Molecule	target	assay	system	setting	how to read	endpoint	result
PhoQ, residues 284 288 289 292 302 303 SCKMEA	PhoP, residues 12 14 15 18 19 TQALL (Escherichia coli, UniProt P23836)	Sort-seq, measured: YFP reporter	E. coli	PhoQ-PhoP variant library, together with: 10 µM Mg2+	reference: high Mg2+ state, higher = stronger signaling	fold induction	7.2

Some of these lines once more (sample 3):
Sequence	fitted relative affinity
ACTAGTGTTTTTCTCCTATTGTGCTAG	1.61 z-score
TCAGATATTAAACTGATACTGTGCTAG	-0.245 z-score
